Experimental data collected from several papers.
Parts stem from different laboratories: compare values within a part only.

Block 1
Target: RING finger protein unkempt homolog, zinc fingers 1-6, GST-SBP tag (UNK, Homo sapiens, UniProt Q9C0B0, residues 30-357)
Technique: RNA Bind-n-Seq
Form: RNA
Sample: in vitro
Tested at: not given
Notes: RNA with constant flanks, human-mouse chimeric sites, ends assumed
Reference: input RNA pool
Direction: higher = stronger binding
Residues (chain): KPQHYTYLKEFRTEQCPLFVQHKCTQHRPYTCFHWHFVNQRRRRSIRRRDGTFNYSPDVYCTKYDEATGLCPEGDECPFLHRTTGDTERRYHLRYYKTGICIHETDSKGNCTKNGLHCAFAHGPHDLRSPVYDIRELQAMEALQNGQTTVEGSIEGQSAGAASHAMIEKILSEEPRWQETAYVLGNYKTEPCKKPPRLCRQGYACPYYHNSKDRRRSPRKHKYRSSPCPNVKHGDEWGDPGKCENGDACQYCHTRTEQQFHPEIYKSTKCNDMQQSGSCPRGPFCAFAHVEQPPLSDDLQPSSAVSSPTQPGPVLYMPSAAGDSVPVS
Strand | bound/input enrichment [ratio]
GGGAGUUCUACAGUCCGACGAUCGCUCUUGGCAAUGUAAUCAGCGCCUUGGGGGACAAGAGCAAGAGAGCCACCCAUGUCCCUUACAGAGAUUCCAAGCUGACAAGACUCUUGCAGGAUUCCCUUGGGGGUAACAGCCAAACCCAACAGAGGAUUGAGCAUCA | 0.068
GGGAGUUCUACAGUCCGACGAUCACUCAGAGAUCCACCUCCCAAAGUGCUCUGGAGCUCUUCUGAUAUUACACACCUAACUUGAUGGAUAUAUAUUUUUUUUAAUAUGAAUCUUCCUGUUCGUCCAGGGAAGAAAGAUUUGUUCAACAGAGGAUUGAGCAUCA | 1.21
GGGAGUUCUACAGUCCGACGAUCCGGAGCCCUCCUCUCCCACAGGCCCAAGAUAUAACCCACCAGUGCCUUCUGUCUGCUCGUUAGCUUUGUCAAUCACGCCUGUCCUCUCACGCCCACACCAAGUGCCCAAAGUGGGGAGGGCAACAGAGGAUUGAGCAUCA | 3.04
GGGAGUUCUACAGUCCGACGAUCGGGGAGAAACCUUACGAGUGUGUGCAGUGUGGGAAAUCCUACAGUCAAAGCUCAAAUCUCUUCAGACAUCAGAGAAGACACAAUGCAGAAAAACUUUUGAAUGUUGUGAAGGUUUAAGAACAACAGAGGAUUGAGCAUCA | 0.134
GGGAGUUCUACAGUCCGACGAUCGGUGGGGUGGUCAUUGCCGUUUGAGCUGCUGAUUUUCAUGAGUCGCCUUCAAAACUCUCGUGUAGGGUUGACAAUGUGGGGGGGUGGGAAAUCUAGCUAUUUUUUUUAUUUUCAAGUCCACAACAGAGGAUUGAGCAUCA | 170
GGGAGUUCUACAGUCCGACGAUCGCUCUUGGGAAUGUAAUCAGCGCCUUGGGGGACAAGAGCAAGAGAGCCACACAUGUCCCUUACAGAGAUUCCAAGCUGACAAGACUCUUGCAGGAUUCCCUUGGGGGUAACAGCCAAACCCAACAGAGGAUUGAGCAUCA | 0.119
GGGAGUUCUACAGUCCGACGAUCAAAGAUCUACUGAGGCAAGGCAGCAAAUUUAGGAGAGACAUUUCAACAAUAUUGAUAGAGUUAGGAUUCCAAAUUAAAAAGAAAACUAAGACAUUAUACAUCAACAAAGCCAAUAUCUGGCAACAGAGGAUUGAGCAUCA | 6.78
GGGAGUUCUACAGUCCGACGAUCCACACACUCUUCUGCGGGACCCUCAUCUUGCAGGCCCGAGCCUACGUGGGACCGCACGUCCUGGCAGUGGUGACCCGCACAGGGUUCUGCACGGCAAAAGGGGGCCUGGUGAGCUCCAUCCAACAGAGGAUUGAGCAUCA | 0.0658
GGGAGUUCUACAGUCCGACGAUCGAUAGGAAAAGCUUGUUGGAGACCCGCUUGCAUGUCACUGGUAGAGACCUGAGGUGUCAAAUAGCUGAAACUUUCGGAUUUCAAGAAAAUUACAUCAAAAUUGUCAUAAAUAAGAAACAGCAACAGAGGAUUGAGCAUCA | 0.544
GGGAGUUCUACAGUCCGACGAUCAAAGAACCUCUCUCUGAUGAAGAUGAGGAAGACAAUGAUGAUGUUGAACCCAUUUCUGAAUUUCGAUUUGUGCCCAGUGAUAAGUCAGCAUUGGAGGCAAUGUUCACUGCAAUGUGCGAGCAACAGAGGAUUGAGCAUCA | 0.174
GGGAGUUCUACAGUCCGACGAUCACCAUUUUCGCGGUUCAAGGUUUUGUGGUAGUUCACUUACGGUAUUAAAUUAUUAUUCUGCUUAGCUUAUAAUAAGGAUAAUUGCAUGAUUUAAGUAUACUGAAUGUUACUCUGAAACUUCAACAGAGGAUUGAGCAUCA | 0.378

Block 2
Target: Histone acetyltransferase KAT6A, winged helix 1, GST fusion (KAT6A, Homo sapiens, UniProt Q92794, residues 1-85)
Technique: protein binding microarray
Form: double-stranded DNA, one strand shown
Sample: in vitro
Tested at: not given
Notes: 8-mer, flanks averaged, mean of 2 arrays, mostly near background
Reference: not given
Direction: higher = stronger binding
Residues (chain): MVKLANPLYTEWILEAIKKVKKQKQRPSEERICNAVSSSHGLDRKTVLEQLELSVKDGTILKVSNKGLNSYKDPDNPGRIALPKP
Strand | E-score
CTTCTAAC | -0.196
ACTGTTCC | -0.0519
AGTCAAGC | -0.049
CCGCGGCG | 0.459
CGCCCCCG | 0.384
AGTACAGC | -0.178
CCATCGGC | 0.24
CCAAATGA | -0.21
GGACTAGA | -0.147
AGAGAGGC | -0.356
AACGCACT | 0.138
CAGATAGC | -0.0982
CACACAAA | -0.286
GAATCCTA | -0.19
GTAATGCA | -0.132
ACCCGAAG | 0.00266
CGAGACCC | 0.185
ATGGTGTC | -0.174

Block 3
Target: RNA binding protein fox-1 homolog 2, RRM domain, GST-SBP tag (RBFOX2, Homo sapiens, UniProt O43251-10, residues 100-194)
Technique: RNA Bind-n-Seq
Form: RNA
Sample: in vitro
Tested at: 365 nM
Notes: natural RNA segment, single round, ends assumed
Reference: no-protein control
Direction: higher = stronger binding
Construct (chain): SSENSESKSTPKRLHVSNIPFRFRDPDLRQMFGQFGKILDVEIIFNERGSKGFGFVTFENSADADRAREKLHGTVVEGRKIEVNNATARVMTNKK
Strand | RBNS enrichment (R)
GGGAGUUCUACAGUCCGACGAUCGUUCACAUCCCAGACACCAGGGGUCAGGUACUAACUAAAGAGAUGGAAUGCAGUGUGCUUUUUGAGACACUAGGGGGAGCCUGGUAUUAACUAAACAGCUUGCCAUUCAAUGGAAUUCUCGGGUGCCAA | 0.813
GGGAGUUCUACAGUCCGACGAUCCACAUGCAGGUGUCCACCAGCAUAGCCUGCCUGAGAUAGUGUCAUUCCUGGUUCUGGGGAGAAGGGUGUGUGAAGGAGAAUAAAGCAGCCCUUUGUCUUAAAGAAGACUAUGGAAUUCUCGGGUGCCAA | 0.674
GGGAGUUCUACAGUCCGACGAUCUGAUCAGUGGCUAAAGUUGAAAAGGGGUUGGUUUCUUUCAUAUAUGUAUGUGUGUGUACAUGCGCAUACAUAGAUAUAUGCACACAUAGAUUAUGUGCUUGACCACUGCCUGGAAUUCUCGGGUGCCAA | 0.314
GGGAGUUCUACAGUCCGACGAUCUCCAGAAAGAAGUUUGUAAAGAAAAGGUGACAUUGCAAGCCCUGCAUGCAAAGCAGACUGCAGCUAGUUAAGAGGAGGCUGCAGUAUCAUCCCUAGUAUCUGCUCUGCAAUGGAAUUCUCGGGUGCCAA | 6.9
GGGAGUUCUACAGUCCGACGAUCUAGCAAAAACCCUAUCGGCCAGAUCAGUGUUACAUUGAUUCUAAGAUUACAGUAUGUCCCAUCAAACAUCUGCUGUAGGUGAGGGAGUGGAUUUGAAGAGGGGUUGAAAGUGGAAUUCUCGGGUGCCAA | 0.47
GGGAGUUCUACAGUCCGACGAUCUUUAAAGAUUUUAUUUAAACUGUUAAGAAUCAAGCCGCGAACAAGCCCACUCCUUCAUGAACAAUUCCACUUUAUUGACUGAACUCUUCUCAUACCUUCACAUUUCUCAGUGGAAUUCUCGGGUGCCAA | 0.492
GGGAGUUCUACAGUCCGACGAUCGGAAUCAAUCUUCCUAAGCUGAAGAACCUCUACCUGGAGAUCAAAGACGCUGGCCUUCAGACCUGAUCAGACUCCCAGGGGCAGCCACCACAUGUAUGACAGAGAACAGAUGGAAUUCUCGGGUGCCAA | 0.736
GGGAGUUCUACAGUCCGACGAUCAGCCCAAAGCAGGUUCUAAUAAGAAUGCACCAAAGCCUUCAGCCUUAGCAAAGACAACUGCUCCUGCUCCACUAGAUAUGACUUCCUCUCCUGUGACAACAGCCAGUUUAUGGAAUUCUCGGGUGCCAA | 0.253
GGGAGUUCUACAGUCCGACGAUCAUUCAAGUUGUGUCUGAAAAUAUCUCUUGUGCUUUUUUGAUUUUGCUGACUUUAAAAGGAUUAAUCUGGGCAGACAUUAUGUAAAAGAAAGGUUGCGUUUAAUAUAUUUUUGGAAUUCUCGGGUGCCAA | 1.14
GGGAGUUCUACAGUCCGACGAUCUCUCCUAACCUUGAGAUCCACCCUCCACAGCCUCCCAAACUGCUGGGAUUACAGGUGUGAGCCACCGCACGUAGCAUUUACAUUAGGUAUUACAAGUAAUGUAAAGAUGAUGGAAUUCUCGGGUGCCAA | 0.466
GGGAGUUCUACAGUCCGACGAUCUAUGUAAUGCCUAAUACUUAGUAUGUAAAUGUCACGAGAUCAUUUUUACAUUAAACGUGAAAAAAAAUCAACUUUGCCGGAUCACUUAUUUUAUACAAGAGAAUAUAUUCUGGAAUUCUCGGGUGCCAA | 0.55
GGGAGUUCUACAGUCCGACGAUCACCAGGCAGGAGCCCCGACCCCCCAGCAGCGGUGCCACUCUUCCAAGCCUCUUGGUGCACAAUAAACUAUUGCUGAAUCUUUGAACAGCUGGAAAGUAGUCUUGAGAGGCUGGAAUUCUCGGGUGCCAA | 0.46

Block 4
Target: PABPC1L2, full length, GST fusion (mouse, UniProt A0ABA7IW68)
Technique: RNAcompete
Form: RNA
Sample: in vitro
Tested at: 20 nM
Notes: 7-mer, probes averaged, single round
Reference: mean of 7-mers
Direction: higher = stronger binding
Residues (chain): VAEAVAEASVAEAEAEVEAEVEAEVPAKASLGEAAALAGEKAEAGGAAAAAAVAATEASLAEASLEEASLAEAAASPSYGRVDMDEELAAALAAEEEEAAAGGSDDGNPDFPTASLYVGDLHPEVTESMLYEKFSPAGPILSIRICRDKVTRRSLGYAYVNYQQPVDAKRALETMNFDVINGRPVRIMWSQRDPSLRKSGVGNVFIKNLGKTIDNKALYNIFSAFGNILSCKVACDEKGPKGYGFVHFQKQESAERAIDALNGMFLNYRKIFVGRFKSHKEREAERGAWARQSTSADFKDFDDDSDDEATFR
Strand | 7-mer Z-score
UCUUCGA | -0.313
GCUGAAG | 0.115
CUUAAUA | -0.0681
UGAGAGA | 0.0334
UCUGGAA | -0.0192
AACAGUG | 0.664
UUCUUAC | -0.269
UGGCGAC | -0.124
GGUGCGC | 0.173
CUAGGGU | -0.0047
UUCCCAG | -0.338
GUCAUUA | -0.0355
AGUGUAC | -0.0138
GCGUUCA | -0.235
AUAUCCG | -0.171
CCACCGU | -0.333
GGGGGUA | 0.327
ACGUCGA | -0.17
CUUGGGA | 0.282
AAAGACG | 2.26
AGAGUAG | -0.15
CAAGCGU | -0.103
UAAGCUA | -0.142
ACAACUA | 0.18
AUACGCU | -0.184

Block 5
Target: Prothrombin, mature alpha-thrombin (F2, Homo sapiens, UniProt P00734)
Technique: aptamer microarray, sandwich
Form: DNA with 2'F-ANA
Sample: in vitro
Tested at: 200 nM
Notes: whole 15-mer aptamer, many near background
With: Cy3 exosite-II aptamer, 400 nM
Direction: higher = stronger binding
Strand: GGTTGGTGTGGTTGG
Modification | mean fluorescence intensity
2'F-ANA at 1 4 6 7 8 10 11 12 14 15 | 57.8 a.u.
2'F-ANA at 2 3 5 7 9 13 15 | 82.2 a.u.
2'F-ANA at 1 2 5 6 8 11 12 15 | 83.1 a.u.
2'F-ANA at 3 6 8 9 14 15 | 534 a.u.
2'F-ANA at 1 2 3 9 | 210 a.u.
2'F-ANA at 1 3 4 5 6 9 11 13 14 | 58.1 a.u.
2'F-ANA at 3 4 7 10 13 | 266 a.u.
2'F-ANA at 3 6 7 9 13 14 | 491 a.u.
2'F-ANA at 1 3 4 6 11 12 13 14 15 | 71.3 a.u.
2'F-ANA at 2 3 4 6 7 9 10 11 13 14 15 | 148 a.u.
2'F-ANA at 1 2 3 6 8 11 12 13 14 | 78.8 a.u.
2'F-ANA at 1 2 7 8 9 10 13 15 | 80.8 a.u.
2'F-ANA at 1 3 4 5 10 11 12 13 14 15 | 46.6 a.u.
2'F-ANA at 1 2 3 6 8 12 | 503 a.u.
2'F-ANA at 1 2 4 6 12 13 14 | 55.7 a.u.
2'F-ANA at 6 9 10 11 12 14 15 | 102 a.u.

For quick reference, copied from above (block 4):
Strand | 7-mer Z-score
AAAGACG | 2.26
AGAGUAG | -0.15
CAAGCGU | -0.103
UAAGCUA | -0.142
ACAACUA | 0.18
